Experimental data of several laboratories.
Protocols differ between the studies behind these lines. ± gives the spread as reported.

CCCCCCCCCCCCCCCC(=O)NCCOCCOCCOCCOCCOCCOCCOCCOCCC(=O)NCCCC[C@H](NC(=O)CNC(=O)[C@@H]1CSSC[C@H](N)C(=O)N[C@@H](Cc2ccc(O)cc2)C(=O)N[C@@H]([C@@H](C)CC)C(=O)N[C@@H](CCC(N)=O)C(=O)N[C@@H](CC(N)=O)C(=O)N1)C(=O)NCC(N)=O — CSF to plasma unbound ratio (rat; subcutaneous depot, 10 mg/kg): 0.02
CCCC[C@H](NC(=O)CNC(=O)CNC(=O)CN1CCN(CC(=O)O)CCN(CC(=O)O)CCN(CC(=O)O)CC1)C(=O)N[C@H]1CC(=O)NCCCC[C@@H](C(N)=O)NC(=O)[C@H](Cc2c[nH]c3ccccc23)NC(=O)[C@H](CCCNC(=N)N)NC(=O)[C@@H](Cc2ccccc2)NC(=O)[C@H](Cc2c[nH]cn2)NC1=O [copper-64 labelled] — tissue uptake (female C57 mouse, B16/F1 melanoma, stomach; intravenous, 0.037 MBq, 0.5 h): 2.83 ± 0.84 %ID/g
CC(C)c1cnc(-c2cc(Cl)ccc2F)cc1Nc1ccncc1C(=O)NC(CO)CO — patients with treatment-related adverse event (monotherapy, measured: rash; human patients; oral, dose not given, grade 2, phase I A): 0%
Cc1cc(CN2CCN(c3c(Br)cnc4nc(-c5ccc(N6CCN(C)CC6)cc5)[nH]c34)CC2)no1 — free plasma concentration (female athymic CrTac:NCr-Foxn1(nu) mice, plasma; oral, 75 mg/kg twice daily for 3 days, 1 and 6 h after last dose): ~60 nM
CC(=O)N[C@H](CCNC(=O)c1cc(NC(=O)c2cc(NC(=O)c3cc(NC(=O)c4nccn4C)cn3C)cn2C)cn1C)C(=O)Nc1cn(C)c(C(=O)Nc2cc(C(=O)Nc3cc(C(=O)Nc4cc(C(=O)NCCCN(C)CCCN[14C](=O)c5cccc([14C](=O)O)c5)n(C)c4)n(C)c3)n(C)c2)n1 — kidney concentration (BALB/c male mouse; intraperitoneal, 15 nmol per animal, 24 h): 0.23 mg/kg
NCCCC(=O)OCC(=O)c1ccc(O)c(F)c1F.O=C(O)C(F)(F)F — quantum yield (photolysis, measured: disappearance of compound; unbuffered water): 0.24
CC1(C)C(=CC=C(C=CC2=[N+](CCC[N+](C)(C)C)c3ccc(S(=O)(=O)[O-])cc3C2(C)C)CCC(=O)[O-])N(CCC[N+](C)(C)C)c2ccc(S(=O)(=O)[O-])cc21 — quantum yield (100% serum; pH 7.4): 22.8%
CCCC(CCC)NC(=O)c1ccc(OC2OC(C(=O)O)C(O)C(O)C2O)c(O)c1 (centres unmarked) — Cmax ratio (male Sprague-Dawley rats, plasma; oral, 200 mg/kg of parent drug; relative to: 200 over 20 mg/kg dose): 3.98
COC(=O)c1ccc(-c2cn(Cc3cc(Cl)ccc3O[11CH3])nn2)cc1 — volume of distribution (PET, Logan plot; rhesus monkey, thalamus; dose not given, 40 min): 0.543 mL/cm³
CC[C@H](C)[C@H](NC(=O)[C@H](CC(C)C)NC(=O)[C@H](Cc1c[nH]c2ccccc12)NC(=O)[C@H](C)NC(=O)[C@@H](NC(=O)[C@H](Cc1ccccc1)NC(=O)[C@H](CC(=O)O)NC(=O)[C@H](CCCNC(=N)N)NC(=O)[C@H](C)NC(=O)[C@H](C)NC(=O)[C@H](CC(C)C)NC(=O)[C@H](C)NC(=O)[C@H](CC(=O)O)NC(=O)[C@H](CC(C)C)NC(=O)[C@@H](NC(=O)[C@@H](NC(=O)[C@H](C)NC(=O)[C@H](CC(C)C)NC(=O)[C@H](CCC(=O)O)NC(=O)[C@H](CO)NC(=O)[C@H](CO)NC(=O)[C@H](Cc1ccccc1)NC(=O)[C@@H](NC(=O)CNC(=O)[C@H](CCC(=O)O)NC(=O)CNC(=O)[C@@H](N)Cc1c[nH]cn1)[C@@H](C)O)[C@@H](C)O)[C@@H](C)CC)[C@@H](C)CC)C(=O)N[C@@H](C)C(=O)N[C@H](C(=O)N[C@@H](CCCCN)C(=O)N[C@H](C(=O)N[C@H](C(=O)N[C@@H](CC(=O)O)C(=O)N[C@@H](CCCCN)C(=O)O)[C@@H](C)O)[C@@H](C)CC)[C@@H](C)O — terminal half-life (healthy human subjects, plasma; subcutaneous, 5 mg once weekly, day 36 after 6 doses, steady state, mean): 231 h
CC(C)(O)c1ncc([S@](N)(=O)=NC(=O)Nc2c3c(cc4c2CCC4)CCC3)s1 — AUC(0-tau) (healthy human; oral, 30 mg once daily, day 1, capsule formulation, geometric mean): 24800 ng·h/mL
Nc1nc(-n2nnc3c2CCC2C(CO)C2CC3)nc2c1ncn2C1OC(CO)C(O)C1O (mixture of isomers) — brightness (methanol): 0.38 M⁻¹ cm⁻¹
COc1ccc2cc(-c3ccc(-c4ccc(C)cn4)nc3)oc2c1 — radiative decay rate constant (TCSPC; acetonitrile; zinc-free ligand): 0.49 ns⁻¹
C[C@H](NC(=O)[C@H](Cc1cnc[nH]1)NC(=O)[C@H](CO)NC(=O)[C@@H](N)CC(=O)O)C(=O)N[C@@H](CCCCN)C(=O)N[C@@H](CCCNC(=N)N)C(=O)N[C@@H](Cc1cnc[nH]1)C(=O)N[C@@H](Cc1cnc[nH]1)C(=O)NCC(=O)N[C@@H](Cc1ccc(O)cc1)C(=O)N[C@@H](CCCCN)C(=O)N[C@@H](CCCNC(=N)N)C(=O)N[C@@H](CCCCN)C(=O)N[C@@H](Cc1ccccc1)C(=O)N[C@@H](Cc1cnc[nH]1)C(=O)N[C@@H](CCC(=O)O)C(=O)N[C@@H](CCCCN)C(=O)N[C@@H](Cc1cnc[nH]1)C(=O)N[C@@H](Cc1cnc[nH]1)C(=O)N[C@@H](CO)C(=O)N[C@@H](Cc1cnc[nH]1)C(=O)N[C@@H](CCCNC(=N)N)C(=O)NCC(=O)N[C@@H](Cc1ccc(O)cc1)C(=O)O — time to fragment appearance (cationic PAGE; pooled whole saliva supernatant G3, diluted 1:10; 100 µg/mL, 37 °C): 1.5 h
CN(C)c1ccc(-c2nc3ccc(OCCCCCN4CCN5CCN(CC4)CC(=O)[O][Al]([18F])[O]C(=O)C5)cc3s2)cc1 — stomach uptake (ICR mouse; intravenous, dose not given, 10 min): 1.05 ± 0.26 % injected dose/organ
C=C(C)C(=O)NCCCCCC(=O)N[C@@H](Cc1ccccc1)C(=O)N[C@@H](CCCCN)C(=O)N[C@@H](Cc1ccccc1)C(=O)N[C@@H](CC(C)C)C(=O)NCCCCCC(=O)N[C@H](CCCCN)C(=O)N[C@H](CCCCN)C(=O)N[C@H](CCCCN)C(=O)N[C@H](CCCCN)C(=O)N[C@H](CCCCN)C(=O)N[C@H](CCCCN)C(=O)N[C@H](CCCCN)C(=O)N[C@H](CCCCN)C(=O)N[C@H](CCCCN)C(=O)N[C@H](CCCCN)C(N)=O — time intact peptide detected (MALDI-TOF MS; mouse serum; 37 °C): ≥ 4 h
COc1cc(NC(C)=O)c2c(c1O)-c1c(OC)c(OC)cc3c1C(C2)N(C)CC3 (centres unmarked) — remaining compound (rat, plasma; 5 µg/mL, 40 d, -20 °C, long-term storage): 92 ± 10.4%
COc1cc(OC)cc(C2=C3C(C)=C(I)C(C)=[N+]3[B-](F)(F)n3c(/C=C/c4c[nH]c5ccc([N+](=O)[O-])cc45)c(I)c(C)c32)c1 — emission maximum (DMSO): 651 nm
Oc1cccc(-c2cccc(O)n2)n1.[Cl-].[Cl-].[Ru+2].c1cnc2c(c1)ccc1cccnc12.c1cnc2c(c1)ccc1cccnc12 — logD (shake flask; octanol/acetate buffer; pH 4.00): 0.17
CCCC1OC2CC3C4CCC5=CC(=O)C=CC5(C)C4C(O)CC3(C)C2(C(=O)COC(=O)CN(CC)CC)O1 (centres unmarked) — time to complete hydrolysis (human plasma; 200 µg/mL, 37 °C): ≤ 24 h
NCCCC(=O)OCC(=O)c1ccc(O)c(OC(F)(F)F)c1.O=C(O)C(F)(F)F — quantum yield (photolysis, measured: rearranged acid appearance; aqueous HEPES buffer with LiClO4; pH 8.2): 0.01
CCCC[C@H](NC(=O)[C@H](CC(C)C)N(C)C(=O)CNC(=O)[C@@H](NC(=O)[C@H](Cc1ccccc1)NC(=O)[C@H](CCCCN)NC(=O)[C@@H](N)CC(=O)O)C(C)C)C(N)=O — diastolic pressure decrease (anaesthetized spinalized rat; SC, 300 µg/kg; relative to: baseline): 15%
Cn1c(=O)oc2ccc(-c3ccc(CC(C#N)NC(=O)C4CNCCCO4)c(F)c3)cc21 (centres unmarked) — subjects with TEAE (measured: total protein decreased; human; 80 mg single dose, fasted): 0%
COc1cc(-c2nc3ccccc3s2)cc(CN2CCN(CC(=O)OC(C)(C)C)CCN(CC(=O)OC(C)(C)C)CC2)c1O — pKa2 (UV-Vis pH titration; 25 °C, ionic strength 0.1 M NaCl): 5.75
Cc1ccccc1/N=N/c1ccc(/N=N/c2c(O)ccc3ccccc23)c(C)c1 — measured concentration (rat whole blood QC samples; 5.0 µg/L, 4 h, room temperature, short-term stability): 5.04 µg/L
CC(C)(C)NCC(SS(=O)(=O)O)c1ccccc1 (centres unmarked) — mean residence time (female Swiss Webster mice, plasma; oral, 100 mg/kg, includes mean input time): 1.83 h
NCCCC(=O)OCC(=O)c1ccc(O)cc1F.O=C(O)C(F)(F)F — quantum yield of rearranged acid (photolysis at 300 nm; ammonium acetate buffered acetonitrile-water; pH 5.0, 0.01 mol/L buffer): 0.23
O=c1c(Cc2ccccc2)nc2ccccc2n1Cc1cn(-c2ccc(S(=O)(=O)Nc3ncccn3)cc2)nn1 — safe concentration (MTT; rat primary colonocytes, Albino rat, male; 72 h, concentration at 100% viability): 0.124 ± 0.007 µM
COc1cc2c(cc1OC)CN(CCCCn1ccc3cc(OCC[18F])ccc31)C2 — tracer uptake (male CD-1 mouse, heart; intravenous, 1 h): 2.03 %ID/g
Cc1ccc(-c2ccc(-c3cc4sccc4o3)cn2)nc1 — fluorescence quantum yield (DMF; with: quinine bisulfate reference): 0.67
CC(C)[C@H](NC(=O)[C@@H]1CCCN1C(=O)[C@H](CCCNC(=N)N)NC(=O)[C@H](CS)NC(=O)[C@H](Cc1c[nH]c2ccccc12)NC(=O)[C@H](CCCNC(=N)N)NC(=O)[C@@H](Cc1ccccc1)NC(=O)[C@H](Cc1c[nH]cn1)NC(=O)[C@H](CCC(=O)O)NC(=O)[C@H](CS)NC(=O)[C@H](CS)NC(=O)CNC(=O)[C@@H]1CC(=O)N[C@@H](CCCNC(=N)N)C(=O)NCC(=O)N[C@@H](CC(=O)O)C(=O)N[C@H](Cc2ccc(O)cc2)C(=O)N1)C(N)=O [technetium-99m labelled] — tumour to tissue ratio (C57 mouse, female, B16/F1 melanoma; intravenous, 0.037 MBq, 4 h; relative to: tumour over lung): 7.07
CC(C)[C@H](NC(=O)CNC(=O)[C@H](CCC(N)=O)NC(=O)[C@H](C)N)C(=O)O — Cmax (human male, plasma; intravenous infusion, 10 mg/kg single, 15 min infusion, geometric mean): 1340 ng/mL
CC(C)[C@H](NC(=O)[C@@H]1CCCN1C(=O)[C@H](CCCNC(=N)N)NC(=O)[C@H](CS)NC(=O)[C@H](Cc1c[nH]c2ccccc12)NC(=O)[C@H](CCCNC(=N)N)NC(=O)[C@@H](Cc1ccccc1)NC(=O)[C@H](Cc1c[nH]cn1)NC(=O)[C@H](CCC(=O)O)NC(=O)[C@H](CS)NC(=O)[C@H](CS)NC(=O)COCCOCCNC(=O)[C@@H]1CC(=O)N[C@@H](CCCNC(=N)N)C(=O)NCC(=O)N[C@@H](CC(=O)O)C(=O)N[C@H](Cc2ccc(O)cc2)C(=O)N1)C(N)=O [technetium-99m labelled] — tumour-to-tissue ratio (nude mouse, M21 melanoma xenograft, tumour over liver; intravenous, 0.037 MBq, 2 h; relative to: tumour over liver): 1.53 ± 0.14
C=C(C)C(=O)Nc1ccc(-c2c(-c3ccc(Oc4nccc(C)n4)cc3)c3c(N)ncnc3n2C)cc1 — hepatocyte CLint (metabolic stability; cynomolgus monkey, hepatocytes): 3.4 µL/min/10⁶ cells
Oc1ccc2ccccc2c1/N=N/c1ccccc1 — stability deviation (rat whole blood; 16.0 µg/L, 30 days, -20 °C, long-term storage): -0.2%
CCCC(CCC(=O)O)NC(=O)c1ccc2c(c1)OCO2 (centres unmarked) — Cmax ratio (female Sprague-Dawley rats, plasma; oral, 200 mg/kg of parent drug; relative to: 200 over 20 mg/kg dose): 3.48
N=C(N)NCCC[C@@H]1NC(=O)[C@H](Cc2c[nH]c3ccccc23)NC(=O)[C@@H](CC2CCCCC2)NC(=O)[C@@H]2CCCN2C(=O)[C@@H](NC(=O)CCc2ccccc2)CCCNC1=O — distribution rate constant k12 (C57BL/6J mice, brain; intraperitoneal, 1 mg/kg, two-compartment model): 1.92 h⁻¹
CC/C=C\C/C=C\C/C=C\C/C=C\C/C=C\CCCCOC(CC)C(=O)O (centres unmarked) — tissue concentration (radioactivity, 14C-labelled; Wistar rat, male, whole blood; oral, 100 mg/kg, 8 h): 28.1 µg equivalents/g tissue
CCN(CC)C(=O)c1ccc(-c2cc(NCCCN3CCCCC3)c3ccccc3n2)cc1 — serum concentration (C57BL/6 mice, male, serum; oral, 0.05% w/w in chow, 5 days): > 3000 nM
NC[C@@H](C(=O)Nc1ccc(-c2cn[nH]c2)cc1)c1ccccc1 — conjunctival redness score (OECD 405; New Zealand White rabbit; topical, 0.1 %, 49 h, day 3; direction not given): 1
COCCOCCOCCOCCOCCOCCOCCOCCC(=O)NCCCc1cc2cc3nc(cc4[nH]c(cc5nc(c(OC)c1[nH]2)C(=O)C5(C)C)cc4CCc1ccc(C(=O)O)cc1)CC3(C)C — B band absorption maximum (DMF; room temperature): 398 nm

For quick reference, copied from above:
CCCC(CCC)NC(=O)c1ccc(OC2OC(C(=O)O)C(O)C(O)C2O)c(O)c1 (centres unmarked) — Cmax ratio (male Sprague-Dawley rats, plasma; oral, 200 mg/kg of parent drug; relative to: 200 over 20 mg/kg dose): 3.98
COC(=O)c1ccc(-c2cn(Cc3cc(Cl)ccc3O[11CH3])nn2)cc1 — volume of distribution (PET, Logan plot; rhesus monkey, thalamus; dose not given, 40 min): 0.543 mL/cm³
